Measured values from different studies.

| SMILES | species | matrix | route | dose | time | setting | concentration |
| --- | --- | --- | --- | --- | --- | --- | --- |
| Cc1cc(/C=C2\CN(C(C)C)C/C(=C\c3cc(C)c(O)c(C)c3)C2=O)cc(C)c1O | female Sprague-Dawley rat | plasma | intravenous | 20 mg/kg | 8 h | – | 110 ng/mL |
| COc1ccc(S(=O)(=O)N2CCc3ccccc3C2)cc1N1CCN(C(=O)c2ccc(F)cc2C(F)(F)F)CC1 | rat | brain | intravenous | 10 mg/kg | 30 min | single dose | 250 ng/g |
| C[Si](C)(C)C[C@H](CN)CC(=O)O | male Sprague-Dawley rat | brain | oral | 30 mg/kg | 1 h | single dose | 5.1 µM |
| O=c1c2cc(Cl)ccc2sc2c(NCc3ccccc3)nc3ccccc3c12 | male Sprague-Dawley rat | plasma | intravenous | 3 mg/kg | 5 min | single dose | 1440 ng/mL |
| Cc1nc(N[C@@H](C)c2ccc(-c3nc(C4CC4)no3)cc2)c2cc(C)oc2n1 | rat | plasma | oral | 10 mg/kg | 24 h | – | 0.565 µM |
| C[Si]1(C[C@H](CN)CC(=O)O)CCCC1 | male Sprague-Dawley rat | brain | oral | 30 mg/kg | 1 h | single dose | 4 µM |
| CN(C1COC1)C(C)(C)/C=C(\C#N)C(=O)N1CCC[C@H]1Cn1nc(-c2ccc(Oc3ccccc3)cc2F)c2c(N)ncnc21 | female Sprague-Dawley rat | plasma | oral | 40 mg/kg | 6 h | – | 24 ng/mL |
| [2H]C([2H])([2H])C(c1cc2nnc(-c3cc(F)ccc3F)n2nc1OCc1ncnn1C)(C([2H])([2H])[2H])C([2H])([2H])[2H] | Wistar rat | plasma | oral | 6 mg/kg | 2 h | – | 487 ng/mL |

Some of these lines once more:
| SMILES | species | matrix | route | dose | time | setting | concentration |
| --- | --- | --- | --- | --- | --- | --- | --- |
| CN(C1COC1)C(C)(C)/C=C(\C#N)C(=O)N1CCC[C@H]1Cn1nc(-c2ccc(Oc3ccccc3)cc2F)c2c(N)ncnc21 | female Sprague-Dawley rat | plasma | oral | 40 mg/kg | 6 h | – | 24 ng/mL |
